Experimental data collected from several papers.
PRKCH: Protein kinase C eta type (PRKCH, Homo sapiens, UniProt P24723)
UniProt P24723, sequence (whole entry, looked up): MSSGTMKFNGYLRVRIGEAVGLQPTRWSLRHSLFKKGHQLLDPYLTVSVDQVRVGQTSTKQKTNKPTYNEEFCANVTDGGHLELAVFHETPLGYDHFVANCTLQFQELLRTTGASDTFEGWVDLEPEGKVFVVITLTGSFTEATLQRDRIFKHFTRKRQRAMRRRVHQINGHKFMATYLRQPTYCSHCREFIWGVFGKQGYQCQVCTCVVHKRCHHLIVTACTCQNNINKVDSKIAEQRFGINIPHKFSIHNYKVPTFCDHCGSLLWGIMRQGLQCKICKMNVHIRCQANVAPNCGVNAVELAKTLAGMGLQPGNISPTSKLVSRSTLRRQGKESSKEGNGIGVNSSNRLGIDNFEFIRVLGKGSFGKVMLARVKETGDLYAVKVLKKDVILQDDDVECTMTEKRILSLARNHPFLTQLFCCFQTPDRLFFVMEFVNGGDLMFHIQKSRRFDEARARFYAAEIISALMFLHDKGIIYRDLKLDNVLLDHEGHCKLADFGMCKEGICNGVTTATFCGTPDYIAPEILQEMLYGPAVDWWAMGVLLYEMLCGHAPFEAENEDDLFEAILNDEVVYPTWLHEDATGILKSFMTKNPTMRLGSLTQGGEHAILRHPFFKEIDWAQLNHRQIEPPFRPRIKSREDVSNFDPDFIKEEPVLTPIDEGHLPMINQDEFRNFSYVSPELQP
UniProt Q04771, sequence (whole entry, looked up): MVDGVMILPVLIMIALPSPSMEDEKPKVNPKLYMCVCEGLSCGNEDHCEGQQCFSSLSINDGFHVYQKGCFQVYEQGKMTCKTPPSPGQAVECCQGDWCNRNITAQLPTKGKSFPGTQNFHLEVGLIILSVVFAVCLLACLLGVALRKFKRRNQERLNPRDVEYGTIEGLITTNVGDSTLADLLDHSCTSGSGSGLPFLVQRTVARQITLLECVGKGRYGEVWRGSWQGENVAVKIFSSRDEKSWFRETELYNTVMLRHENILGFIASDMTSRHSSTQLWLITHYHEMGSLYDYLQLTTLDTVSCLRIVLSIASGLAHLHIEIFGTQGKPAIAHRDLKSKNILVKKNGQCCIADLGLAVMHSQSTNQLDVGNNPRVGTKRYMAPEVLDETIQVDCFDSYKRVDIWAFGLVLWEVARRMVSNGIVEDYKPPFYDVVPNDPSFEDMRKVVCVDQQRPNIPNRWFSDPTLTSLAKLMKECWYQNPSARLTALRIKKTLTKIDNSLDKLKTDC
UniProt Q01959, sequence (whole entry, unmodified, looked up): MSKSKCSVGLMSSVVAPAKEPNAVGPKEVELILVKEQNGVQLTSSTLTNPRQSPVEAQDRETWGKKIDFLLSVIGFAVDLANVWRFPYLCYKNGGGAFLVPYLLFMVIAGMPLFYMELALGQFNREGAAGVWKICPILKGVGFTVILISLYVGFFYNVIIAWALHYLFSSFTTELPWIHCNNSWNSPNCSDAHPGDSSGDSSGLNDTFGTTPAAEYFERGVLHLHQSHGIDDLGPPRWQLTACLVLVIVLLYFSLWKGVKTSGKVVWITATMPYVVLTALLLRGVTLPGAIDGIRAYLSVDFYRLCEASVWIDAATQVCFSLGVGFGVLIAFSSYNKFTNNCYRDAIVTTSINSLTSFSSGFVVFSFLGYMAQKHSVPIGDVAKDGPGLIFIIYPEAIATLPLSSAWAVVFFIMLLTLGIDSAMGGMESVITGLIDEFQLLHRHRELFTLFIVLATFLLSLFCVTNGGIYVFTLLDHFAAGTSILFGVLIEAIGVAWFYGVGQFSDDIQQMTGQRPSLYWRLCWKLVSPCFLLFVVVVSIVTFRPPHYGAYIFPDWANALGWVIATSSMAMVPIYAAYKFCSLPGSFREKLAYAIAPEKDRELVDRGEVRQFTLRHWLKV
UniProt P54760, sequence (whole entry, looked up): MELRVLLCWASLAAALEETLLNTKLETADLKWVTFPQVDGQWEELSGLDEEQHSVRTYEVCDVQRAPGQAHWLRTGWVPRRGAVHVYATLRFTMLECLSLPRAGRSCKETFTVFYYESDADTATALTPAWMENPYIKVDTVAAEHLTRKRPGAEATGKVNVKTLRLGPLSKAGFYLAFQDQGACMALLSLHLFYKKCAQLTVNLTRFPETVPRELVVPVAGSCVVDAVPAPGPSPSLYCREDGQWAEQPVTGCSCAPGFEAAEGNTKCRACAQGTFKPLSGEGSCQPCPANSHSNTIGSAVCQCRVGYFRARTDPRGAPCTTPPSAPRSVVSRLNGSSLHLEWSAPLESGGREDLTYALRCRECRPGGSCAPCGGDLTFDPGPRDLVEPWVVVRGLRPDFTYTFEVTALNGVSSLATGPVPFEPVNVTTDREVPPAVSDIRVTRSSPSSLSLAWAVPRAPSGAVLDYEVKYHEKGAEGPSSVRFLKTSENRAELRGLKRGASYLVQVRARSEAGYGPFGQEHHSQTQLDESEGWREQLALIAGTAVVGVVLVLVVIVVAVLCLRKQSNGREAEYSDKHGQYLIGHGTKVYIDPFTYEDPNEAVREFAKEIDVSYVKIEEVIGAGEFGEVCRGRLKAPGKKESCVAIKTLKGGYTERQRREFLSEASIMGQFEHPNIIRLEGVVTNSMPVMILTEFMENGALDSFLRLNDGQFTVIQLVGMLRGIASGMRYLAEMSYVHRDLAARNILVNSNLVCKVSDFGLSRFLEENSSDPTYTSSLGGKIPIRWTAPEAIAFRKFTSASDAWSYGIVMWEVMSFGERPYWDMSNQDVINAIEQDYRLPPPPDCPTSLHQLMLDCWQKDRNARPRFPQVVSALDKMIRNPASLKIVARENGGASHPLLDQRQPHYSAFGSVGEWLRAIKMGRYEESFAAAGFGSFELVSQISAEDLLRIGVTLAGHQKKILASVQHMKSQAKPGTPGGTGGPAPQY
UniProt Q6P3R8, sequence (whole entry, looked up): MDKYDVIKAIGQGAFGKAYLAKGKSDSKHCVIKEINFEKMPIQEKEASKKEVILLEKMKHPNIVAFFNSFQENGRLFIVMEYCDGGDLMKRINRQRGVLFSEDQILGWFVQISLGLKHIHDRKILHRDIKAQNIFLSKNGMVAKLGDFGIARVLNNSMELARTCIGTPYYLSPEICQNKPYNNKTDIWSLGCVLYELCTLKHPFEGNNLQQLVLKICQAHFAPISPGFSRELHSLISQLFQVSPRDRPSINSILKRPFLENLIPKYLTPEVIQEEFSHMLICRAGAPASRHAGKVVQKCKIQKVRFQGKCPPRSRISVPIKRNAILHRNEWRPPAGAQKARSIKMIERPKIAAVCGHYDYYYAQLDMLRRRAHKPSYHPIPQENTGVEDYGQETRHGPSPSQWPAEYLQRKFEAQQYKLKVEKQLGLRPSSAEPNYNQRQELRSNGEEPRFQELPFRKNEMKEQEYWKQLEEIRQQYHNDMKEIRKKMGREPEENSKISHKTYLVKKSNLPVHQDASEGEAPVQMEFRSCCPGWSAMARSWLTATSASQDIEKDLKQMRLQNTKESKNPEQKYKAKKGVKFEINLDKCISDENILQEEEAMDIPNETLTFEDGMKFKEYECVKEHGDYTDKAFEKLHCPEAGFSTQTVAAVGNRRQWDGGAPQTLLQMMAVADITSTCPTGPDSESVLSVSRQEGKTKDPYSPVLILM
UniProt P27448, sequence (whole entry, looked up): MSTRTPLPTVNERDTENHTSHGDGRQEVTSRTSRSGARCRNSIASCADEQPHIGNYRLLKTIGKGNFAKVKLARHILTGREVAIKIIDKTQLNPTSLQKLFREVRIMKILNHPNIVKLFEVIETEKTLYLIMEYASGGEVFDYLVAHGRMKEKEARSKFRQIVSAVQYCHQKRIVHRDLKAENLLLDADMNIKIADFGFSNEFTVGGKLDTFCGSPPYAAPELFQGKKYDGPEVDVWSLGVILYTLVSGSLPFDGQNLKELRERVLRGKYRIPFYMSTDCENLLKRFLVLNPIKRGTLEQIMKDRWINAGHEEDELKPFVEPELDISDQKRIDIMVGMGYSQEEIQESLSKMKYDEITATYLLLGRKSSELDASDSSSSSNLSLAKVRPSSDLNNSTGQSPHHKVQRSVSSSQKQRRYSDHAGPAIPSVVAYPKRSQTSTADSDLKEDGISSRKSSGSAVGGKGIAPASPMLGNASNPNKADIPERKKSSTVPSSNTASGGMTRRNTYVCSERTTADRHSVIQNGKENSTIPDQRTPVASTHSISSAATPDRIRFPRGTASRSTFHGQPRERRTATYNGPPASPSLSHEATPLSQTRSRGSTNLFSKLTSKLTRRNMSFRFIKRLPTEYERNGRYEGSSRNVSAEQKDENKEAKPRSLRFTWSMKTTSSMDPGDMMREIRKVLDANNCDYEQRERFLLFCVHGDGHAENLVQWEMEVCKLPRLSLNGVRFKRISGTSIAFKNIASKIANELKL

COc1cc(-c2cncc3c2CN(C)Cc2cc(N4CCNCC4)ccc2-3)cc(OC)c1OC — remaining activity (Activin receptor type-1 (ACVR1, Homo sapiens, UniProt Q04771); kinase activity; 1 µM, human enzyme, added: ATP 10 µM; reference: DMSO control): 0%
CNc1ncc2c(/C=C/C(=O)N3CCC(OC)CC3)nn(Cc3cccc(C(F)(F)F)c3)c2n1 — remaining activity (PRKCH; kinase activity, inhibitor; 1 µM; reference: untreated control): 109%
C=CC(=O)N1CCC[C@@H](n2nc(-c3ccc(Oc4ccccc4)cc3)c3c(N)ncnc32)C1 — remaining activity (Ephrin type-B receptor 4 (EPHB4, Homo sapiens, UniProt P54760); 10 µM): 98.7%
CCCCCCCCCCCCC/C=C/[C@@H](O)[C@@H](N)COP(=O)(O)O — log2 fold change (binding, MIDAS equilibrium dialysis LC-MS; A2AR-BRIL thermostabilized; concentration not given; reference: no-protein control): -0.186
O=C(NC1CCC1)c1ccc2nc(-c3cccc(NS(=O)(=O)NCCN4CCCCC4)c3)cn2c1 — remaining activity (Serine/threonine-protein kinase Nek5 (NEK5, Homo sapiens, UniProt Q6P3R8); enzyme activity; 10 µM): 100%
COc1cc(F)ccc1-c1ncnc(Nc2cccc(C[S@](C)(=N)=O)c2)n1 — remaining activity (PRKCH; kinase activity; 10 µM, added: 10 µM ATP): 110%
COc1cc(N2CCN(C)CC2)ccc1Nc1nc(N)n(C(=S)NCc2c(Cl)cccc2Cl)n1 — remaining activity (MAP/microtubule affinity-regulating kinase 3 (MARK3, Homo sapiens, UniProt P27448); enzyme activity; 10 µM; reference: control): 1.4%
N[C@@H]1CC[C@@H](c2ccc(Cl)c(Cl)c2)c2ccccc21 — remaining activity (Sodium-dependent dopamine transporter (SLC6A3, Homo sapiens, UniProt Q01959, F326A); dopamine uptake; 0.0001 µM, 0.03333 h, F326A mutant, added: [3H]dopamine; reference: no inhibitor): 104%
COc1cc(Nc2ncc3c(n2)-c2ccc(Cl)cc2C(c2c(F)cccc2OC)=NC3)ccc1C(=O)O — remaining activity (Aurora A; inhibitor, biochemical kinase; 1 µM): 0%
Cc1cc(Nc2cc(N3CCN(C)CC3)nc(Sc3ccc(NC(=O)C4CC4)cc3)n2)[nH]n1 — remaining activity (Ephrin type-A receptor 8 (EPHA8, Homo sapiens, UniProt P29322); kinase activity, KinaseProfiler; 0.03 µM, species human; reference: control): 89%
O=C(O)c1ccc(Nc2ncc3c(n2)-c2ccc(Cl)cc2C(c2c(F)cccc2F)=NC3)cc1 — remaining activity (CaMKIIγ(h); kinase activity; 1 µM): 112%
Nc1ccn([C@H]2C[C@H](O)[C@@H](COP(=O)(O)OP(=O)(O)OP(=O)(O)O)O2)c(=O)n1 — log2 fold change (binding, MIDAS equilibrium dialysis LC-MS; A2AR-BRIL thermostabilized; concentration not given; reference: no-protein control): -0.398
